Measurements collected from several papers.
Each numbered part is a random draw from the data of one study; scales do not carry over between parts.
Chain of UniProt Q96SB4 (whole entry, looked up): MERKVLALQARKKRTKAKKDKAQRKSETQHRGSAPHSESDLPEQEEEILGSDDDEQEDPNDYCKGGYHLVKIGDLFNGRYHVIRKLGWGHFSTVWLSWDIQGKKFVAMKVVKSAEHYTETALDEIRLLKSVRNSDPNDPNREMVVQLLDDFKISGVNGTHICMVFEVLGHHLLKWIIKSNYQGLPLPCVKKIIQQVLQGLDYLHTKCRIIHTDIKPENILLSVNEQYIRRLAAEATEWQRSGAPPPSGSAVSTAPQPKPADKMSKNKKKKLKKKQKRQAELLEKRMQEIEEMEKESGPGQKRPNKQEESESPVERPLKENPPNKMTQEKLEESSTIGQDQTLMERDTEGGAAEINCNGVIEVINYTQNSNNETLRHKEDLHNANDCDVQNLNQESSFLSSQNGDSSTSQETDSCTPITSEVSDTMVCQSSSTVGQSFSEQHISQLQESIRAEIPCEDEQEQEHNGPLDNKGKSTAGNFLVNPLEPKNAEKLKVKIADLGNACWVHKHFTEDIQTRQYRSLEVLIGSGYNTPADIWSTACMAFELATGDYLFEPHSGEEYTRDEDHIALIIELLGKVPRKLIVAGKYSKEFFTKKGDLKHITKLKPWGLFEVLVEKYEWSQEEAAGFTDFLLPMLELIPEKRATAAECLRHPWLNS
Chain of UniProt Q01959 (whole entry, looked up): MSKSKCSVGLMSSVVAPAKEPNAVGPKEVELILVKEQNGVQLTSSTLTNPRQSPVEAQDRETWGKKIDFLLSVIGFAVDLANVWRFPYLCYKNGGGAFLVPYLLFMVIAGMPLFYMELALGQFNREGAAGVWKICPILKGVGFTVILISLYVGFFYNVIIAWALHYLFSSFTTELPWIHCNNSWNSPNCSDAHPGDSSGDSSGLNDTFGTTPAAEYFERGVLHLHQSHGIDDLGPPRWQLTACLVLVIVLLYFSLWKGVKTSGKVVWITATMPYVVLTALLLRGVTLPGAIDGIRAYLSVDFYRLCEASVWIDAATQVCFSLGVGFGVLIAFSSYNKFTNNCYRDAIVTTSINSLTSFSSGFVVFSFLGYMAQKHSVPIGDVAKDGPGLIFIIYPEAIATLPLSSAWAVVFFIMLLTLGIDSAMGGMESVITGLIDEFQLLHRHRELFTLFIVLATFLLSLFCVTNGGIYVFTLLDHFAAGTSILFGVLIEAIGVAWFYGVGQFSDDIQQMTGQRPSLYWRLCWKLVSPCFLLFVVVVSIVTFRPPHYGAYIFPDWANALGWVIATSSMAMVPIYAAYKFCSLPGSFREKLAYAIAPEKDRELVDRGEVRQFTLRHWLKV
Chain of UniProt P28223 (whole entry, looked up): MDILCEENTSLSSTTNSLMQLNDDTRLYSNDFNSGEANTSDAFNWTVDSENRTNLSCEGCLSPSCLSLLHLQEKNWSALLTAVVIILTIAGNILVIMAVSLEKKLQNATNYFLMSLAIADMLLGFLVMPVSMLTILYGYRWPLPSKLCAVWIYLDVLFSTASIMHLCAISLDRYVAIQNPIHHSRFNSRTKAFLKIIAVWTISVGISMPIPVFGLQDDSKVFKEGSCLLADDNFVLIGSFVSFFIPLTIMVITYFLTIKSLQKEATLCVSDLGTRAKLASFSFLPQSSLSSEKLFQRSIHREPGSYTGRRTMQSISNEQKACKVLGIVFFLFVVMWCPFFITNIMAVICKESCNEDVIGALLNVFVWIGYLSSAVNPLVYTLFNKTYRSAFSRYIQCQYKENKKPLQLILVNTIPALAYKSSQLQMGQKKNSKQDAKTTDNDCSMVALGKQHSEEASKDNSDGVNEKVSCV
Chain of UniProt Q96SW2 (whole entry, looked up): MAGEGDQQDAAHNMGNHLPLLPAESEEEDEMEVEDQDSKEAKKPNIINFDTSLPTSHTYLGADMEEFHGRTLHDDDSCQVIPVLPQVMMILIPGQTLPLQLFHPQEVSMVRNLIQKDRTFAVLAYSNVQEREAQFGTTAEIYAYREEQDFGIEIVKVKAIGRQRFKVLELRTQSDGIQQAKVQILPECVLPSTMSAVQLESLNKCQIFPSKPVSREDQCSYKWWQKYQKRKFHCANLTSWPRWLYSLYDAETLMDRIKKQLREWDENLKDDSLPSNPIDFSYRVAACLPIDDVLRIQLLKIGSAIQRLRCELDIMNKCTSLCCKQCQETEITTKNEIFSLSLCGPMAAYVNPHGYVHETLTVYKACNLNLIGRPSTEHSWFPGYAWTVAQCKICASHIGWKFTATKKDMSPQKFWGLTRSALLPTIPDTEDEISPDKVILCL

Study 1 — mode: inhibitor; tested at: concentration not given; setting: absolute value; added: with minus without ssDNA
Target: DNA polymerase theta, helicase domain (POLQ, Homo sapiens, UniProt O75417)
Chain of UniProt O75417 (whole entry, looked up): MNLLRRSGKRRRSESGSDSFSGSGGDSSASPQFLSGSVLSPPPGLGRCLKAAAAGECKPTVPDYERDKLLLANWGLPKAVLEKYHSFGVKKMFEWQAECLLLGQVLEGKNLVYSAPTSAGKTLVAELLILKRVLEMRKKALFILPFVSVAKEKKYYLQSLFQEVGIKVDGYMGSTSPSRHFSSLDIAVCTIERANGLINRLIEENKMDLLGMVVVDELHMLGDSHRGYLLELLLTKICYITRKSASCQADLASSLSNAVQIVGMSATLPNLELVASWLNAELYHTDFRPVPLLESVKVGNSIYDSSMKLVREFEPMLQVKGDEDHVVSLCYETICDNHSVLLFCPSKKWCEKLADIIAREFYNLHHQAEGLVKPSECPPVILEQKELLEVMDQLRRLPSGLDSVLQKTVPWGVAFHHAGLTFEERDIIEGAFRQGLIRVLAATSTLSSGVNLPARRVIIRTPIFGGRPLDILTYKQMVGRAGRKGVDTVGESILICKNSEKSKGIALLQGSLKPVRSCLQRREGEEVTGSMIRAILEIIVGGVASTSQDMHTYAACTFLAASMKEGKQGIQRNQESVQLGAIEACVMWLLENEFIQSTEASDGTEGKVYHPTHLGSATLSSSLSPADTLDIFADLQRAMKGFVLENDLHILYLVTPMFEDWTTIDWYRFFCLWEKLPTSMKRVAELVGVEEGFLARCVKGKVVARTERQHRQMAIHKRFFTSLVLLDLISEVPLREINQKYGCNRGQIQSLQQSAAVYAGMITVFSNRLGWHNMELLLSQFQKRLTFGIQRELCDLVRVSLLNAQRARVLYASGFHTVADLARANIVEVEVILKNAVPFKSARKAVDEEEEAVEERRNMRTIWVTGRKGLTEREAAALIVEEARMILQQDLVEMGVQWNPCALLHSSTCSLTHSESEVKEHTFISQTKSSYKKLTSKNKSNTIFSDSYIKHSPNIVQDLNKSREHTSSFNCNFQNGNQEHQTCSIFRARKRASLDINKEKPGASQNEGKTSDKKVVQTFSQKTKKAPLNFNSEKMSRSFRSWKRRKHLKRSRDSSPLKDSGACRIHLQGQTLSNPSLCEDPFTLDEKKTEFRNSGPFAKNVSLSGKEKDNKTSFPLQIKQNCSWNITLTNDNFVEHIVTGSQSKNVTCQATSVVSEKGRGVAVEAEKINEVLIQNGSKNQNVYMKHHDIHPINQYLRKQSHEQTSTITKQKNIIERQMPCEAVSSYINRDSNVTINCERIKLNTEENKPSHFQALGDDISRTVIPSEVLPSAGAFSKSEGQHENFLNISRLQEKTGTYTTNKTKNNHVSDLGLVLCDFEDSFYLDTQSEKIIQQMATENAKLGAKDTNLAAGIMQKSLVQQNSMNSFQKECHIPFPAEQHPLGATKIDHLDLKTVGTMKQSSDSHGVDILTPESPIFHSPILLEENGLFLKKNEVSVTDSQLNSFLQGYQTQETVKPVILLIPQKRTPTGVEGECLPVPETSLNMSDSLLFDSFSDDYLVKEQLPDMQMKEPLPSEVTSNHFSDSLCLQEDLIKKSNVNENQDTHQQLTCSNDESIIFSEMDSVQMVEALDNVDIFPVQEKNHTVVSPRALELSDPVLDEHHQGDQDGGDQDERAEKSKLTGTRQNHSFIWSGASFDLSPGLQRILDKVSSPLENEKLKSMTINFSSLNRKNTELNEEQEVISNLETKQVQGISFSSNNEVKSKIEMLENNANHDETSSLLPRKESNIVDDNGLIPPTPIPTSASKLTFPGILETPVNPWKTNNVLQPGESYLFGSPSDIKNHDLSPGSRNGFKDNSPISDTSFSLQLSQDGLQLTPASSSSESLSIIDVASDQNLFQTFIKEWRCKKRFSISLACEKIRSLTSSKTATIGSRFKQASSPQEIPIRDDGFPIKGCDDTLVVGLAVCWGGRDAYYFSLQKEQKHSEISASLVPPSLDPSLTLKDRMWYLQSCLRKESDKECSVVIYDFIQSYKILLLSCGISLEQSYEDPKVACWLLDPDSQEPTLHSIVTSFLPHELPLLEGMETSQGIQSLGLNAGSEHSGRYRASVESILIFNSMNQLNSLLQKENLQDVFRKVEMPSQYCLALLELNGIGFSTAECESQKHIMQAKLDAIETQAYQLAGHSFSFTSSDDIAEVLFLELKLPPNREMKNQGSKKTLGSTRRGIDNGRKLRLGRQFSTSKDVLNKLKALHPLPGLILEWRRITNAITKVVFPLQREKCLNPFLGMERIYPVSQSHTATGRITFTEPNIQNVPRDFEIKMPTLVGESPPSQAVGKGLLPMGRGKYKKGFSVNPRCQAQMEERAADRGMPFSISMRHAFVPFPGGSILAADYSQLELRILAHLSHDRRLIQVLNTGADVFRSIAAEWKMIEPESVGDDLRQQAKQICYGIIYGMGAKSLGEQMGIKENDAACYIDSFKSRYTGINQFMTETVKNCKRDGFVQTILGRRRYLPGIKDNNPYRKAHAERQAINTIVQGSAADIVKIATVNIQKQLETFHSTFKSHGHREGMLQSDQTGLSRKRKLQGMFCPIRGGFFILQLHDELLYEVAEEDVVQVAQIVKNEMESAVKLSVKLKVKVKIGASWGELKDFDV
| SMILES | difference in remaining activity [%] |
| --- | --- |
| CN(N=O)c1ccc(O)c(O)c1 | 56.8 |
| CSc1ccc(C(c2c(O)c3ccccc3oc2=O)c2c(C)n(C)n(-c3ccccc3)c2=O)cc1 (stereo not shown) | 35.5 |
| COc1cc(C(c2c(O)c3ccccc3oc2=O)c2c(C)n(C)n(-c3ccccc3)c2=O)ccc1OCC(=O)O (stereo not shown) | 40.5 |
| CCN(CC)C(=O)c1ccc2c(c1)N(Cc1ccc(C(F)(F)F)cc1)C(=O)c1ccccc1S2 | 23.1 |

Study 2 — organism: Sarcocystis neurona; observed: parasite growth; tested at: 10 µM; time: 96 h; setting: first screen; relative to: untreated
| SMILES | log2 fold change |
| --- | --- |
| CCCC(C)(COC(N)=O)COC(=O)NC(C)C (stereo not shown) | 0.27 |
| O=C1CN=C(c2ccccc2)c2cc([N+](=O)[O-])ccc2N1 | -0.11 |
| CC(C)N(CCC(C(N)=O)(c1ccccc1)c1ccccn1)C(C)C (stereo not shown) | 0.09 |
| CCN(C(C)=O)c1cccc(-c2ccnc3c(C#N)cnn23)c1 | 0.00776 |
| O=c1[nH]cc(F)c(=O)[nH]1 | -3.58 |
| c1ccc2c3c([nH]c2c1)CNCC3 | 0.03 |
| C=C1C[C@@H]2[C@H](CC[C@]3(C)C(=O)CC[C@@H]23)[C@@]2(C)C=CC(=O)C=C12 | -0.16 |

Single results of other studies
| SMILES | target | assay | test system | setting | quantity | value |
| --- | --- | --- | --- | --- | --- | --- |
| COc1cc(-c2cn(C3CCc4ccccc4N(CC(F)(F)F)C3=O)nn2)ccc1-n1ccc(C)n1 (stereo not shown) | 5-hydroxytryptamine receptor 2A (HTR2A, Homo sapiens, UniProt P28223) | binding, radioligand binding |  | 10 µM | inhibition | 5.83% |
| O=C1CCC(N2Cc3c(ccc4c3OCC43CCN(Cc4ccccc4)C3)C2=O)C(=O)N1 (stereo not shown) | CRBN/Zinc finger protein Helios (Homo sapiens, UniProt Q96SW2+Q9UKS7) | degrader, HiBiT | HEK293 | 0.1694 nM | protein remaining | 97.8% |
| O=C(NCc1ncc(C(F)(F)F)cc1Cl)c1ccc2c(c1)C1(CCS(=O)(=O)CC1)[C@@H](C1CC1)N2S(=O)(=O)c1ccc(F)cc1 | SRSF protein kinase 1 (SRPK1, Homo sapiens, UniProt Q96SB4) | cell-free assay, competition with immobilised ligand |  | 1 µM | remaining binding | 96% |
| COc1cc(N[C@@H]2CCCC[C@]2(O)C(F)(F)F)ccc1F | Sodium-dependent dopamine transporter (SLC6A3, Homo sapiens, UniProt Q01959) | ligand displacement |  | 10 µM | inhibition | -17.1% |
| CN([C@@H]1CCc2c(CC(=O)O)c3ccccc3n2C1)S(=O)(=O)c1ccc(F)cc1 | Sodium-dependent serotonin transporter (SLC6A4, Homo sapiens, UniProt P31645) | ligand displacement |  | 10 µM | inhibition | 9.29% |

Excerpt of the above (study 2):
| SMILES | log2 fold change |
| --- | --- |
| CCCC(C)(COC(N)=O)COC(=O)NC(C)C (stereo not shown) | 0.27 |
